Published values gathered from unrelated publications.
Each numbered part is a random draw from the data of one study; scales do not carry over between parts. Substitutions count along the parent as printed.

Sample 1 — method: protein-binding microarray; molecule type: double-stranded DNA, one strand shown; matrix: in vitro; concentration: 940 nM top; notes: 60-bp whole probe; together with: salmon DNA 0.4 mg/ml; reference: random background probes; reading: higher = stronger binding; all sequences stand within: GCCTAGCAC … GTCTTGATTCGCTTGACGCTGCTG
Target: Interferon regulatory factor 5, full length, phosphomimetic (IRF5, Homo sapiens, UniProt Q13568-2, residues 1-514, S451D/S453D/S456D/S462D)
`GTCGGTTCCGGTTTCGGGACGTGCTAG`: “fitted relative affinity” 7.36 z-score.
`TTAGGTTTAGGTTCCGGTTAGTGCTAG`: “fitted relative affinity” 1.9 z-score.
`GACGGTATCCTGCTGCTGACGTGCTAG` — result for “fitted relative affinity”: -0.0869 z-score.
For `TTAGGTATAGACTTTCGGTTAGTGCTA`, “fitted relative affinity” read 2.1 z-score.
Under “fitted relative affinity”, `GACGGTATCGGGACTGGCGACGTGCTA` is recorded as 3.44 z-score.
`GACAGTCTCCTTATCCTGACGTGCTAG`: “fitted relative affinity” 0.861 z-score.
`TTAGTACTGGGTATCGGTTAGTGCTAG`: “fitted relative affinity” 3.6 z-score.
Under “fitted relative affinity”, `GACGATTTCGGGACTGGATACGTGCTA` is recorded as -0.0306 z-score.

Sample 2 — method: RNA Bind-n-Seq; molecule type: RNA; matrix: in vitro; concentration: 365 nM; reference: no-protein control; reading: higher = stronger binding
Target: RNA binding protein fox-1 homolog 2, RRM domain, GST-SBP tag (RBFOX2, Homo sapiens, UniProt O43251-10, residues 100-194)
Notes: natural RNA segment, single round, ends assumed
Construct (chain): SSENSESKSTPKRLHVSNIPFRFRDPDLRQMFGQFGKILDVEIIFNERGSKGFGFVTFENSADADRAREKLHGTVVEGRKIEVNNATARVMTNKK
`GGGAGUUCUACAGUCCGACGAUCGAAAUGCCUCUUGGUCCUGUCCAAGUGUAUCUUUCACUGAUUUCUGAAUCAUGUUCUAGUUGCUUGACCCUGCCACAUGGGUCCAGUGUUCAUCUGAGCAUAACUGUACUUGGAAUUCUCGGGUGCCAA`: “RBNS enrichment (R)” 0.265.
Under “RBNS enrichment (R)”, `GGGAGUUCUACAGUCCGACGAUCUUAUUUUAUUUGGAGAAGAGGGAUACAAUGGAAUUUUUCCUUACCAAUUAGAAAUAAUUGUAAUGCCUAAAAAACUUUUUCACAAAAAUGAAUCUUUGAAAUUUUUUAUUUGGAAUUCUCGGGUGCCAA` is recorded as 1.09.
`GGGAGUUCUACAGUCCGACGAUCAUCGUAUCGUGUGUGCGUGCGUGUGUGACGUCAGGCUGCCACGUAAACUUCAGAGAAGAACCUUAAAGCAGACCAUCCAUUUUUGCAUGCUCUCUUCUAAGUAGAAUGUUUGGAAUUCUCGGGUGCCAA` — result for “RBNS enrichment (R)”: 2.34.
`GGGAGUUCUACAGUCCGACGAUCGAGCCACUUUAUCUCCUUUUGGCAAUCUGAGUAGGCGGGGAACCUAGGCAGGGCUGGCUUUCUUAGCGUGUAACUUGUGUAGCAGCACAGGGCCCACACUUAGAAGGACCUGGAAUUCUCGGGUGCCAA`: “RBNS enrichment (R)” 0.403.
`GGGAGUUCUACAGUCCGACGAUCGUCCCUCUGUCCUACACGGUCACCACAGUGACGACCCAAGGCUUCCCCUUGCCUACAGGCCAGCACAUCCCUGGCUGCAGUGCCCAGCAGCUCCCAGCAUGCUCCGUGAUUGGAAUUCUCGGGUGCCAA` — result for “RBNS enrichment (R)”: 5.38.
For `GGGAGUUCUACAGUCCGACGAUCUUACACUACUUAGAAAAUCACCUUUUCAGAUAAAACAGUUUAUGAGUUCAUAGAGAACACCAGCACUCUUUGACAAAACUGUGAGUGACCCUUUUUAAACAAUGCUGAGCUGGAAUUCUCGGGUGCCAA`, “RBNS enrichment (R)” read 0.604.
For `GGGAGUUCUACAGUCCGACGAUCUACUCUAGCCUGGGCCAGAGAAGAUAAUGUUCUUUAAUGUUGUCCAGGAAACCCUGGCUUGCUUGCCGAGCCUAAUGAAAGGGAAAGUCAGCUUUCAGAGCCAGUGAAGGUGGAAUUCUCGGGUGCCAA`, “RBNS enrichment (R)” read 0.312.
`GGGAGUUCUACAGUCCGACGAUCGGGCGUGUGUGACACUGAUGAGUUUCACUGUACUGCAUGUGACUUCUCCCCUGCCCUUCCUCCUGAUGGAGUGUGCAGACAGCCAUGCGUGGCCACGGGGGCAGUGUGAGUGGAAUUCUCGGGUGCCAA`: “RBNS enrichment (R)” 24.1.
Under “RBNS enrichment (R)”, `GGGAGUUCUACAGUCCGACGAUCCCAGUGGGUCUGGGAUAUGGCUGCCCAGGAGACAGACCACUUGCCACGCUGUUGUAAAAACCCAAGUCCCUGUCAUUUGAACCUGGAUCCAGCACUGGUGAACUGAGCUGUGGAAUUCUCGGGUGCCAA` is recorded as 0.596.
Under “RBNS enrichment (R)”, `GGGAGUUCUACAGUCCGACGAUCAAGCUAAAGGACCUGCCUAGGAUUAUAAUAUUUGAAGAAUGAACUUUUAAAUUCUUGCAAUAACGAAACCCUGCCUCCUUGACUAUUUGAACUCAGUUCUCCAUCUAAACUGGAAUUCUCGGGUGCCAA` is recorded as 0.321.
For `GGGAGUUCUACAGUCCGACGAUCGUAAUGACCAGUGGAUUUUUGUUUGGCUUUAUUAAUCUCAUCACAGUGUAUUCUGAUGUCUUAAGUGGUCAGAAAAGAGCACUAAGAAAUGGAUCUAUAUAACCAAUGAGUGGAAUUCUCGGGUGCCAA`, “RBNS enrichment (R)” read 0.337.

Sample 3 — target: CCNF, cyclin fold, Cln2 fusion (human); method: yeast growth competition, sequencing; matrix: yeast; notes: strong parent motif; reference: not given; reading: higher = stronger binding
Starting sequence: CDKN1B docking peptide (human); PSACRNLFGPVDH
`PWACRNLFGPVDH [S2W]` — result for “normalised enrichment score”: 6.19.
`HSACRNLFGPVDH [P1H]`: “normalised enrichment score” 7.86.
`PSACRNLFGPVDD [H13D]`: “normalised enrichment score” 6.57.
Under “normalised enrichment score”, `PSACRNLFGPVPH [D12P]` is recorded as 8.12.
`PSACSNLFGPVDH [R5S]`: “normalised enrichment score” 0.342.
For `ASACRNLFGPVDH [P1A]`, “normalised enrichment score” read 7.18.

Single results of other studies
For `PhoQ, residues 284 288 289 292 302 303 SSLVEF`, the fold induction was 13.1 (PhoP, residues 12 14 15 18 19 GHCSL (Escherichia coli, UniProt P23836); Sort-seq, refers to: YFP reporter; E. coli; PhoQ-PhoP variant library, together with: 10 µM Mg2+; reference: high Mg2+ state, higher = stronger signaling).

Excerpt of the above (sample 3):
Under “normalised enrichment score”, `PSACRNLFGPVPH [D12P]` is recorded as 8.12.
`PSACSNLFGPVDH [R5S]`: “normalised enrichment score” 0.342.
For `ASACRNLFGPVDH [P1A]`, “normalised enrichment score” read 7.18.
